Results from different studies.
Parts stem from different laboratories: compare values within a part only. Changes are numbered by the printed parent chain.

Block 1
Target: RING finger protein unkempt homolog, zinc fingers 1-6, SBP tag (UNK, Homo sapiens, UniProt Q9C0B0, residues 30-357)
UniProt Q9C0B0, sequence (30-357, looked up): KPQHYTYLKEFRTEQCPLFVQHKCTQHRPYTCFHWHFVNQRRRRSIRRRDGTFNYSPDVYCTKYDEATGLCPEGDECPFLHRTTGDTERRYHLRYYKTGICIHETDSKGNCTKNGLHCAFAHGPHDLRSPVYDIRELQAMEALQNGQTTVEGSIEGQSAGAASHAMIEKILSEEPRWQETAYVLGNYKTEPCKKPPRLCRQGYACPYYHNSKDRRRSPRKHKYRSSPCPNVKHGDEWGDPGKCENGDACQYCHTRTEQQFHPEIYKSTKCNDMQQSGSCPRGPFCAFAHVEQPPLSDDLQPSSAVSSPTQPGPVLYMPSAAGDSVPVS
Technique: RNA Bind-n-Seq
Form: RNA
Sample: in vitro
Tested at: 100 nM
Notes: RNA with constant flanks, vertebrate orthologous sites, ends assumed
Baseline: input RNA pool
Reading: higher = stronger binding
Oligonucleotide	bound/input enrichment [ratio]
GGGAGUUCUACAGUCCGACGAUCGUGUUUUGUACAGGGCAUUCUCUGUACUAGUUUGUCGUGGUUAUAAAACAAUUAGCAGAAUAGCCUACAUUUGUAUUUAUUUUCUAUUCCAUACUUCUGCCCACGUUGUUUUCUCUCAAACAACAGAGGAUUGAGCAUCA	1.22
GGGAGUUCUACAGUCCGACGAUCCUCAAGCUUUGUGUUUGGCUGUACUUGCAUUAGCUGCUACAAAUAGAAUAAAGAAUUUCAUAGCCAGUAUCUAUCAUUUAGAUGCAUGGAAAAUGGGCUUUGCACAAUGGGUUUGGAGCUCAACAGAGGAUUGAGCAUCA	2
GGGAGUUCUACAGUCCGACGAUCUGUGAGCGUCUACAGACAGCUCACCAUUUUUGUCCUGUAUCUGUAAACACUUUCUGUUCUUAGUCUUUUUCUUGUAAAAUUGAUGUUCUUUAAAAUCGUUAAUGUAUCACAGGGCUUAUGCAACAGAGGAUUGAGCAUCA	0.506
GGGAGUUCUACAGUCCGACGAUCAGCAGUUAGAGUGGGCUCUUCCUCUCCAUCUCCCAUGAGGACAAAAGCCCAAAUAGAUGCCUCACACAUCUGAUGAUACUGUUCUGUUUUUGUUUUCUGCUUUUACAUAUGCAUCGGAAUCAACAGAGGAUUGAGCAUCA	0.91
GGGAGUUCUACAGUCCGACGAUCCUACAAUAAUGAAAACCUACCAGAAAUUUUUUUUAUUUUUCAUUUUCCCUUAGGCAUACUUAGCCUUUUUCUCCCCAGGCAGAUGAUUCUGAGUGUGCGAGUGUGUGUGCACAUGUUACACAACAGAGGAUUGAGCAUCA	0.691
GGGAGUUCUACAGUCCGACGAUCCCUUUCUCCCCUGCUGAGAGGGAGUGGGGGAGCCCAGGAAGACCCUCAGCUGUUCCAAUCCAGUAUUUUUUUUCUUUUUUAAAAUUACUGUAUUUAUUAUGACGAUGGUGACUCCCCAGUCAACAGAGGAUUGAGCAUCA	0.46
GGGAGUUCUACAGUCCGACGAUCCCAGAAUUUUAACCAAGAAUCUGAAGGUAGAAAUACAGGACCAUGGUUAUCUUCUUCACUUAGAAAUAGAUGCACACCCUUGUUCUCUAGAAGGAGACGAGAGGGACGAGAUGAAUCUUCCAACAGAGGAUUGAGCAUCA	0.567
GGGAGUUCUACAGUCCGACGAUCAUAAGAACUCUUGCAGUCUUAGAUGUUAUAAAAAAUAUGUAUCUGAAUUGUAAGAGUUGUUAGUACAGUUUUUUGUUUUUUAAAAGCACUUGUUUUGGGUACAAGGCUUUUCUGAAAUUUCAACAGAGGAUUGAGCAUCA	0.213

Block 2
Target: CCNB1, cyclin fold, Cln2 fusion (human)
Technique: yeast growth competition, sequencing
Sample: yeast
Notes: weak parent motif
Baseline: not given
Reading: higher = stronger binding
Starting sequence: CDKN1A docking peptide (human); SKACRRLFGPVDS
Substitution	normalised enrichment score
SKACRRLSGPVDS [F8S]	0.194
SKACKRLFGPVDS [R5K]	0.247
SKAWRRLFGPVDS [C4W]	0.171
SKACRRCFGPVDS [L7C]	0.384
SVACRRLFGPVDS [K2V]	0.631
SDACRRLFGPVDS [K2D]	0.478
SKADRRLFGPVDS [C4D]	0.113
SKACRMLFGPVDS [R6M]	0.23
SFACRRLFGPVDS [K2F]	0.373

Block 3
Target: Fragile X messenger ribonucleoprotein 1, C-terminal low-complexity region (Fmr1, Mus musculus, UniProt P35922)
Technique: RNA Bind-n-Seq
Form: RNA
Sample: in vitro
Tested at: 200 nM
Notes: whole 134-nt RNA, ends assumed
Together with: 150 mM KCl
Baseline: input library
Reading: higher = stronger binding
Oligonucleotide	log2 enrichment
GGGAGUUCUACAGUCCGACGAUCGUCCUGUGCUACACAUCGUAUGUACCGAAUCGGUUUUUUGGUUUUUUGGGGUUUUUUGGAAAGUAUUAUGUUACGCCGUUCGGAUCUGCAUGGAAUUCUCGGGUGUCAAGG	-0.513
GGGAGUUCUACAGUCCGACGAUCGCAGGAAGUAAAAACAAAUGGAAAUGCUUCGGAUAGUGGCAGGGGUGGGUGUUGCUAAGGAAAGGGUGGGAUGGGAGUGGGUAAAGAGUUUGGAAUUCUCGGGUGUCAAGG	0.124
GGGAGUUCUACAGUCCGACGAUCUUGACAUGAAGACAAUGGAGACUGCAGAGAAACUGGCUAGAUUUGUUGCUCAGGUGGGACCAGAGAUCGAACAAUUCAGCAUAGAAAACAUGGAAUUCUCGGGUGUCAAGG	-0.799
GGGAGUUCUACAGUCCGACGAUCGUCCUGUGCUACACAUCGUAUGUACCGAAUCGGGGAAAGGGGUUUUUUUGGGGAGGGGAAAGUAUUAUGUUACGCCGUUCGGAUCUGCACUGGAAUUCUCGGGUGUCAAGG	0.631
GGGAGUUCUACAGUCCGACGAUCCCUGUGCUACACAUCGUAUGUACCGAAUCGGGGAAAAAAGGGGAAAAAAGGGAAAAAAGGGAAAGUAUUAUGUUACGCCGUUCGGAUCUGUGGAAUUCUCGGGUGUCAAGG	-0.531
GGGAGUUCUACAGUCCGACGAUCUGGACUUGCGGGUUCCCAUCUGGGACCAGGACAUACAGUUUCUCCCAGGAUCACAGAAGCUUGUCACCUGCACAGGGUACCACCAGGUAAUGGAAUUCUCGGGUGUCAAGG	-0.535
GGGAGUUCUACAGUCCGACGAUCACCAUGCAGGUGGGCAUCUUUGGGAAGUGGGGCAAGGGGGGGAUAGGGAGGGGGGUAACACUUUGGGAACAGGUGGUCCCAGGUCGUUCCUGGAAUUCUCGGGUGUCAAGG	0.615
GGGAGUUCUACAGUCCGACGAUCGAGGAGAUAAUCUCGGAAAAGUUACGGAAACCUGGGAAGUCGGCGAAACCCUACGUUCGGGUGUUUUCGGAAGCAGCCGAAGCGGCCGCCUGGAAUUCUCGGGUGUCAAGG	-0.302
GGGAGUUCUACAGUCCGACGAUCUGGCCCUGGUGGCAUGCGGGGAGGAAGAGGUGGCCUCAUGGAUCGUGGUGGUCCCGGUGGAAUGUUCAGAGGUGGCCGUGGUGGAAACAGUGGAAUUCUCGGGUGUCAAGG	0.086

Single results of other studies
Substance	target	test	system	conditions	scale	endpoint	value
PhoQ, residues 284 288 289 292 302 303 GASLAW	PhoP, residues 12 14 15 18 19 STWGI (Escherichia coli, UniProt P23836)	Sort-seq, item: YFP reporter	E. coli	PhoQ-PhoP variant library, together with: 10 µM Mg2+	baseline: high Mg2+ state, higher = stronger signaling	fold induction	0.562
